Published values collected from several papers.
Protocols differ between the studies behind these lines. ± gives the spread as reported.

With CC(C)C[C@H](NC(=O)[C@H](CCCCN)NC(=O)[C@H](CCC(=O)O)NC(=O)[C@H](C)NC(=O)[C@@H](NC(=O)[C@H](CCCCN)NC(=O)[C@H](CC(=O)O)NC(=O)[C@H](Cc1ccc(O)cc1)NC(=O)[C@H](Cc1ccccc1)NC(=O)[C@H](C)NC(=O)[C@H](CCCCN)NC(=O)[C@H](CC(C)C)NC(=O)[C@H](Cc1c[nH]c2ccccc12)NC(=O)[C@@H](N)CC(=O)O)C(C)C)C(=O)N[C@@H](CCCCN)C(=O)N[C@@H](CCC(=O)O)C(=O)N[C@@H](C)C(=O)N[C@@H](Cc1ccccc1)C(=O)N1CCC[C@H]1C(=O)N[C@@H](CC(=O)O)C(=O)N[C@@H](Cc1c[nH]c2ccccc12)C(=O)N[C@@H](C)C(=O)N[C@@H](CCCCN)C(=O)N[C@@H](C)C(=O)N[C@@H](C)C(=O)N[C@@H](Cc1ccc(O)cc1)C(=O)N[C@@H](CC(=O)O)C(=O)N[C@@H](CCCCN)C(=O)N[C@@H](C)C(=O)N[C@@H](C)C(=O)N[C@@H](CCC(=O)O)C(=O)N[C@@H](CCCCN)C(=O)N[C@@H](C)C(=O)N[C@@H](CCCCN)C(=O)N[C@@H](CCC(=O)O)C(=O)N[C@@H](C)C(=O)N[C@@H](C)C(=O)O the half-life was 4.7 h (cynomolgus monkey male, plasma; intravenous infusion, 25 mg/kg every other day, day 27).
For CC(C)(CCCC/C=C/CCCCCC(C)(C)C(=O)O)C(=O)O, the half-life was 49.5 ± 29.3 h (rhesus monkey, male, hyperlipidaemic, plasma; oral, 20 mg/kg, first dose).
O=C(OCC(=O)c1ccc([N+](=O)[O-])cc1)/C(=C/c1ccc(Cl)cc1)NC(=O)c1ccccc1 has a half-life of 0.0233 h (chemical stability; glutathione solution; 500 µM).
CC[C@H](C)[C@H](NC(=O)[C@H](CC(N)=O)NC(=O)[C@@H]1CCCN1C(=O)[C@H](CO)NC(=O)[C@H](CC(N)=O)NC(=O)[C@@H](N)CCC(N)=O)C(=O)N[C@@H](Cc1ccccc1)C(=O)NCC(=O)N[C@@H](CCC(N)=O)C(=O)N[C@@H](Cc1c[nH]c2ccccc12)C(=O)N[C@@H](CCSC)C(=O)O gave a half-life of over 24 h (chemical stability; PBS; 280 µM, pH 7.2).
For CC(COC(=O)c1ccccc1)OC(=O)C(N)Cc1ccccc1 (mixture of isomers), the half-life was over 2 h (90% rat intestinal perfusate; 100 µM).
For CC[C@H](C)[C@@H]1NC(=O)[C@H](Cc2ccc(O)cc2)NC(=O)[C@@H](N)CSCSC[C@@H](C(=O)N2CCC[C@H]2C(=O)N[C@@H](CC(C)C)C(=O)NCC(N)=O)NC(=O)[C@H](CC(N)=O)NC(=O)[C@H](CCC(N)=O)NC1=O, the half-life was 768 ± 40.8 h (phosphate buffer; 0.1 mg/mL, pH 4.5, 55 °C).
With CC(COC(=O)c1ccccc1)OC(=O)C(N)C(C)C (mixture of isomers) the half-life was about 24 h (pH 7.4).
CCCCCCCCNP(=O)(Oc1ccccc1)O[C@@H]1O[C@H](CO)[C@@H](O)[C@H](O)[C@H]1F (some centres unmarked) gave a half-life of 8.5 h (chemical stability; aqueous buffer; 100 µM, pH 6.8).

A few entries again:
For CC(COC(=O)c1ccccc1)OC(=O)C(N)Cc1ccccc1 (mixture of isomers), the half-life was over 2 h (90% rat intestinal perfusate; 100 µM).
